{"data": "Measurements pooled from the literature", "target": "Acetylcholinesterase (ache, Electrophorus electricus, UniProt O42275)", "note": "Protocols differ between the studies behind these lines. Several values in a cell are separate wells, animals, samples, runs or records. ± gives the spread as reported.", "chain of UniProt O42275 (whole entry, looked up)": "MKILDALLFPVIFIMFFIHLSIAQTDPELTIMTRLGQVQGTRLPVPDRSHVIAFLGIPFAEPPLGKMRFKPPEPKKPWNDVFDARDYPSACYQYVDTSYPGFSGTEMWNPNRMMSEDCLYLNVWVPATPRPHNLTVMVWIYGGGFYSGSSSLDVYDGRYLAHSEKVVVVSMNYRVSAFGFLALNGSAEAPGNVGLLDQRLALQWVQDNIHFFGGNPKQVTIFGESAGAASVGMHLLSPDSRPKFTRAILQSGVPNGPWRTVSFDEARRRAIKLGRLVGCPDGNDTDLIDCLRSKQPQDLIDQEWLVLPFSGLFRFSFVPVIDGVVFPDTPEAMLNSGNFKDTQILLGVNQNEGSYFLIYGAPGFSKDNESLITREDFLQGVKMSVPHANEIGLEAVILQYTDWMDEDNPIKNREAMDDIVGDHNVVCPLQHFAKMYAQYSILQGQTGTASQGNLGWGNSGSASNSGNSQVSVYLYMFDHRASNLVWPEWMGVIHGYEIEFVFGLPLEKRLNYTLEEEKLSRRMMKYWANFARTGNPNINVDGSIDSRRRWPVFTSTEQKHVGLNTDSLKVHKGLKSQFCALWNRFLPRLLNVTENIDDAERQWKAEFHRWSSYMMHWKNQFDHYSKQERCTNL"}
{"Compound": "Nc1ccc(Nc2c(NC3CCN(Cc4ccccc4)CC3)c(=O)c2=O)cc1", "test": "enzyme activity, inhibitor, Ellman", "setting": "12.5 µM", "inhibition": "68.9%"}
{"Compound": "Cc1ccnc(Nc2c3c(nc4cc(C)ccc24)CCCC3)c1", "test": "enzyme activity, inhibitor, Ellman", "setting": "100 µM", "inhibition": "59.3%"}
{"Compound": "O=C(O)c1cccc(Nc2cc(N3CCN(c4cccc(C(F)(F)F)c4)CC3)c3noc4c3c2C(=O)c2ccccc2-4)c1", "setting": "10 µM", "inhibition": "> 20%"}
{"Compound": "Cn1c(=N)c2[nH]c(=O)n(C)c2n(C)c1=O", "test": "enzyme activity, inhibitor", "setting": "0.1 µg/mL", "inhibition": "62%"}
{"Compound": "Cc1ccc(Nc2c3c(nc4ccccc24)CCCC3)cc1", "test": "enzyme activity, inhibitor, Ellman", "setting": "50 µM", "inhibition": "15.9%"}
{"Compound": "COc1cccc(CCNc2c(NC3CCN(Cc4ccccc4)CC3)c(=O)c2=O)c1", "test": "enzyme activity, inhibitor, Ellman", "setting": "25 µM", "inhibition": "54.6%"}
{"Compound": "Clc1ccc2nc3c(c(Nc4ccc5ccccc5n4)c2c1)CCCC3", "test": "enzyme activity, inhibitor, Ellman", "setting": "50 µM", "inhibition": "72.8%"}
{"Compound": "O=C(CCn1cnc2sc3c(c2c1=O)CCCC3)NCCc1nc2ccccc2[nH]1", "test": "Ellman method", "setting": "10 µM", "inhibition": "9.8 ± 3.4%"}
{"Compound": "COc1ccc([N+](=O)[O-])cc1NC(=O)CCC(=O)[O][Zn][O]C(=O)CCC(=O)Nc1cc([N+](=O)[O-])ccc1OC.c1ccncc1", "test": "inhibitor", "setting": "concentration not given", "inhibition": "72% and 72.7% and 68.7% and 65.3% and 66.1% and 63.2% and 69.3%"}
{"Compound": "Cc1ccc(NCCCC(=O)NN=Cc2ccc3ccc4cccc5ccc2c3c45)cc1", "test": "Ellman method", "setting": "10 µM", "inhibition": "8.16 ± 1.25%"}
{"Compound": "Cc1cccnc1Nc1c2c(nc3ccccc13)CCC(C)C2 (centres unmarked)", "test": "enzyme activity, inhibitor, Ellman", "setting": "50 µM", "inhibition": "89.8%"}
{"Compound": "COc1ccc(CNc2c(NC3CCN(Cc4ccccc4)CC3)c(=O)c2=O)cc1OC", "test": "enzyme activity, inhibitor, Ellman", "setting": "12.5 µM", "inhibition": "60.9%"}
{"Compound": "COc1ccc(Nc2c3c(nc4ccccc24)CCCC3)nc1", "test": "enzyme activity, inhibitor, Ellman", "setting": "50 µM", "inhibition": "66.5%"}
{"Compound": "COc1ccc(Nc2c(NC3CCN(Cc4ccccc4)CC3)c(=O)c2=O)cc1", "test": "enzyme activity, inhibitor, Ellman", "setting": "12.5 µM", "inhibition": "59%"}
{"Compound": "Cc1cccnc1Nc1c2c(nc3ccccc13)CCCC2", "test": "enzyme activity, inhibitor, Ellman", "setting": "50 µM", "inhibition": "52.5%"}
{"Compound": "CN(C)c1ccc(CNC(=O)CCCn2c(=O)c3cccn3c3ccc(F)cc32)cc1", "test": "Ellman method", "setting": "10 µM", "inhibition": "3.62 ± 2.26%"}
{"Compound": "Cc1ccnc(Nc2c3c(nc4ccc(Cl)cc24)CCCC3)c1", "test": "enzyme activity, inhibitor, Ellman", "setting": "50 µM", "inhibition": "39.3%"}
{"Compound": "O=C(NCc1ccc(-c2ccc(F)cc2)o1)c1ccc(-n2cnc3ccccc3c2=O)cc1", "test": "Ellman method", "setting": "10 µM", "inhibition": "4.69 ± 1.62%"}
{"Compound": "O=c1c(NCCc2ccc(Br)cc2)c(NC2CCN(Cc3ccccc3)CC2)c1=O", "test": "enzyme activity, inhibitor, Ellman", "setting": "25 µM", "inhibition": "45.6%"}
{"Compound": "Cc1ccc(/C=C/C(=O)c2ccc(N3CCNCC3)cc2)cc1", "test": "enzyme activity, inhibitor, Ellman", "setting": "10 µM", "inhibition": "56.6%"}
{"Compound": "O=S(=O)(F)CCc1cn(Cc2cccc(-c3ccccc3)c2)nn1", "setting": "20 µM", "inhibition": "26.5%"}
{"Compound": "O=c1c(Nc2ccccc2)c(NC2CCN(Cc3ccccc3)CC2)c1=O", "test": "enzyme activity, inhibitor, Ellman", "setting": "25 µM", "inhibition": "55.7%"}
{"Compound": "O=C(O)c1ccc(Nc2cc(N3CCN(c4cccc(C(F)(F)F)c4)CC3)c3noc4c3c2C(=O)c2ccccc2-4)cc1", "setting": "10 µM", "inhibition": "> 20%"}
{"Compound": "Cc1c2[nH]c3cc(Br)ccc3c2cc[n+]1C", "test": "enzyme activity, inhibitor", "setting": "0.1 µg/mL", "inhibition": "92%"}
{"Compound": "Nc1ccc(CCNc2c(NC3CCN(Cc4ccccc4)CC3)c(=O)c2=O)cc1", "test": "enzyme activity, inhibitor, Ellman", "setting": "12.5 µM", "inhibition": "60.1%"}
{"Compound": "c1cncc(Nc2c3c(nc4ccccc24)CCCC3)c1", "test": "enzyme activity, inhibitor, Ellman", "setting": "50 µM", "inhibition": "46.4%"}
{"note": "For quick reference, copied from above:"}
{"Compound": "Cc1cccnc1Nc1c2c(nc3ccccc13)CCC(C)C2 (centres unmarked)", "test": "enzyme activity, inhibitor, Ellman", "setting": "50 µM", "inhibition": "89.8%"}
{"Compound": "COc1ccc(CNc2c(NC3CCN(Cc4ccccc4)CC3)c(=O)c2=O)cc1OC", "test": "enzyme activity, inhibitor, Ellman", "setting": "12.5 µM", "inhibition": "60.9%"}
{"Compound": "COc1ccc(Nc2c3c(nc4ccccc24)CCCC3)nc1", "test": "enzyme activity, inhibitor, Ellman", "setting": "50 µM", "inhibition": "66.5%"}
{"Compound": "COc1ccc(Nc2c(NC3CCN(Cc4ccccc4)CC3)c(=O)c2=O)cc1", "test": "enzyme activity, inhibitor, Ellman", "setting": "12.5 µM", "inhibition": "59%"}
